Published values pooled from the literature.
Every numbered part comes from another study and shows a few of its results, in no order.

Study 1
Cell line: HEK-293T/ACE2
Read-out: pseudovirus infection
Organism: VSV pseudotyped with SARS-CoV-2 spike
Tested at: 10 µM
Time: 16 h
Relative to: vehicle-treated
With `C=C1C[C@@H]2[C@H](CC[C@]3(C)C(=O)CC[C@@H]23)[C@@]2(C)C=CC(=O)C=C12` the GFP-positive cells was 71.3%.
The GFP-positive cells of `C[C@@H](NCCCc1cccc(C(F)(F)F)c1)c1cccc2ccccc12` is reported as 23.7%.
The GFP-positive cells of `N#Cc1ccc(C(c2ccc(C#N)cc2)n2cncn2)cc1` is reported as 63.9%.

Study 2
Target: Replicase polyprotein 1ab, main protease (rep, Severe acute respiratory syndrome coronavirus 2, UniProt P0DTD1)
Read-out: enzyme activity
Action: inhibitor
Tested at: 20 µM
Notes: primary screen
`O=C(O)c1ccccc1-c1c2cc(I)c(=O)c(I)c-2oc2c(I)c(O)c(I)cc12` has an inhibition of 50.5%.
The inhibition of `C[n+]1ccc(/C=C/c2c[nH]c3ccccc23)cc1` is reported as 27.2%.
`O=C1C(Cl)=C(Cl)C(=O)C(Cl)=C1Cl` gave an inhibition of 101%.

Study 3
Target: RNA binding protein fox-1 homolog 2, RRM domain, GST-SBP tag (RBFOX2, Homo sapiens, UniProt O43251-10, residues 100-194)
Technique: RNA Bind-n-Seq
Form: RNA
Medium: in vitro
Tested at: 365 nM
Notes: natural RNA segment, single round, ends assumed
Relative to: no-protein control
Direction: higher = stronger binding
Residues (chain): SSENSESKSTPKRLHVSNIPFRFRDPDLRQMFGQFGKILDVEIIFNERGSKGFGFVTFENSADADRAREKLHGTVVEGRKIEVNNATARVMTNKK
`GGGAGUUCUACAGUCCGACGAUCUGUUCGAAGCUGUCUGGUAAUGCCCCCAUCUCUCCCCGGGUCCAGUGGAUUUUUUUAACUAUUAUUCAAAAGCAAAACUGAGUUUUGUUUUGUUUGGUUUUUUAAGAAGAUGGAAUUCUCGGGUGCCAA` — result for “RBNS enrichment (R)”: 0.277.
Under “RBNS enrichment (R)”, `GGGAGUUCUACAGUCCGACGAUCUGAGACCAAAAUUUCAGAGCCCUUGAGGUGCAGAGAGCAGAGCCGUCCAAUGAUUUCAACCCUGCAGAGCACCCCGACAAUCCUGAGGCUGCAUCGGGAGCUAGAGCCAGUGGAAUUCUCGGGUGCCAA` is recorded as 0.696.
`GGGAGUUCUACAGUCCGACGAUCUGGGCCUCUAGGCUGUCUCUGUCCCCUCAGCUCCCCGACAUGCAUUUACUCUCUGCCGUGGGUCUGCAGUCGCUGCAACCUACCCUCUCUCUGCCUCAGCCUUACACCCAUGGAAUUCUCGGGUGCCAA` — result for “RBNS enrichment (R)”: 2.26.
`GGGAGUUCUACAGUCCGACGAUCUUGCCACCUGGUACCUUAAACUCGGUGGCUAUUCCCAUUGCUGUGUUUUAUUUGUAUAGUCUUACGUUGAUAGACAGCCCCACUGGAAUUGACCAAUUGUCUACACAGCGUGGAAUUCUCGGGUGCCAA` — result for “RBNS enrichment (R)”: 0.322.
`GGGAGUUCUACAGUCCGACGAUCUCCUACCACUGAGCGCCUUUGCCAGGUCCAGCCUGGGCUCAGGUUCCAAGACUCAGCUGCCUAAUCCCAGGGUUGAGCCUUGUGCUCGUGGCGGACCCCAAACCACUGCCUGGAAUUCUCGGGUGCCAA` — result for “RBNS enrichment (R)”: 0.231.
`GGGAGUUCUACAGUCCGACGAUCGUAAUGCCUCUGUUAACUUUGCCAGGAGCUUUGAGAGUCUGCCCUCUCCCACCCUUCCUGAACCAUGACCACCACCAGCUCUAGGGUCGUAAUGUUGGAGAUCAGGAAUAUGGAAUUCUCGGGUGCCAA`: “RBNS enrichment (R)” 0.511.
`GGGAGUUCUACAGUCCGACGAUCUGGCAGUUAAUUCACAGUUACAGAUAAUGCUUUUAUUUACAUAAAUAUACCAAGUAGUACCCUCUUAUUGUAUUCACUUCAUCUAUUUUCUUAGAAUACUUGCAAUUACUUGGAAUUCUCGGGUGCCAA` — result for “RBNS enrichment (R)”: 0.737.
For `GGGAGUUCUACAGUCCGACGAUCCUGAGAUCCAGCAUCCAGCUGUGGCCAGGGAUCCACCACCUCUGUGUACACCCUCACCCGCUGCUGUCCUGCCCUCUGCCAGUGGCCCCAUCAACCCAGGCCUGGUCUUUUGGAAUUCUCGGGUGCCAA`, “RBNS enrichment (R)” read 0.195.

Study 4
Target: Replicase polyprotein 1ab, nsp13 helicase (rep, Severe acute respiratory syndrome coronavirus 2, UniProt P0DTD1)
Action: inhibitor
Tested at: 20 µM
`CCCCCCCCCCCC1=C(O)C(=O)C=C(O)C1=O` gave an inhibition of -17.6%.
`O=C(O)c1ccccc1O` gave an inhibition of 6.31%.
For `Nc1ccn([C@@H]2CS[C@H](CO)O2)c(=O)n1`, the inhibition was 3.48%.
`CC1(C)CC(=O)c2c(C(F)(F)F)nn(-c3ccc(C(N)=O)c(N[C@H]4CC[C@H](O)CC4)c3)c2C1` has an inhibition of 6.24%.
For `CCc1cncnc1N1CCN(Cc2nc3ccc(C(F)(F)F)cc3[nH]2)CC1`, the inhibition was 5.18%.
The inhibition of `CCc1ccccc1OC[C@@H](O)CN[C@H]1CCCc2ccccc21` is reported as 6.28%.
With `COC(=O)C1=C(C)NC(C)=C(C(=O)OC/C=C/c2ccccc2)C1c1cccc([N+](=O)[O-])c1` (stereo not shown) the inhibition was -0.4%.
`NCC(=O)O` has an inhibition of 4.16%.
With `NC(N)=NCCNS(=O)(=O)c1cccc2cnccc12` the inhibition was -2.95%.
`CCOC(=O)O[C@]1(C(=O)OCCl)CC[C@H]2[C@@H]3CCC4=CC(=O)C=C[C@]4(C)[C@H]3[C@@H](O)C[C@@]21C` gave an inhibition of 3.76%.
For `O=C1c2cccc(O)c2C(=O)c2c(O)cccc21`, the inhibition was 10.3%.
`NC(=O)Nc1cc(-c2cccc(F)c2)sc1C(=O)N[C@H]1CCCNC1` has an inhibition of 6.86%.
For `Oc1cc(O)cc(/C=C/c2ccc(O)c(O)c2)c1`, the inhibition was 1.06%.
`CCC(=O)NC1CCc2cccc(OC)c2C1` (stereo not shown) gave an inhibition of 0.2%.
The inhibition of `C[C@H](CCC(=O)O)[C@H]1CC[C@H]2[C@@H]3[C@@H](O)C[C@@H]4C[C@H](O)CC[C@]4(C)[C@H]3CC[C@]12C` is reported as 5.5%.
The inhibition of `C[C@H]1CC[C@@]2(OC1)O[C@H]1C[C@H]3[C@@H]4CC[C@@H]5C[C@@H](O)CC[C@]5(C)[C@H]4CC[C@]3(C)[C@H]1[C@@H]2C` is reported as -5.72%.
`CC(C)C[C@H](NC(=O)CNC(=O)[C@H](Cc1ccc(O)cc1)NC(=O)[C@H](CO)NC(=O)[C@H](Cc1c[nH]c2ccccc12)NC(=O)[C@H](Cc1cnc[nH]1)NC(=O)[C@@H]1CCC(=O)N1)C(=O)N[C@@H](CCCNC(=N)N)C(=O)N1CCC[C@H]1C(=O)NCC(N)=O` gave an inhibition of 6.57%.
`CCC1(CC)C(=O)C=CNC1=O` gave an inhibition of 7.11%.
For `CCCCCCCCCCC(CO)CCCCCCCC` (stereo not shown), the inhibition was 5.95%.
`CC(C)[C@H](C(=O)Nc1ccc(C(=O)NO)cc1)c1ccccc1` gave an inhibition of -1.47%.
With `CCc1c(C)[nH]c2c1C(=O)C(CN1CCOCC1)CC2` (stereo not shown) the inhibition was 0.77%.

Study 5
Target: Interferon regulatory factor 3, full length, phosphomimetic (IRF3, Homo sapiens, UniProt Q14653, residues 1-427, S386D/S396D/S398D/S402D/T404D/S405D)
Technique: protein-binding microarray
Form: double-stranded DNA, one strand shown
Medium: in vitro
Tested at: 2540 nM top
Notes: 60-bp whole probe
Added: salmon DNA 0.4 mg/ml
Relative to: random background probes
Direction: higher = stronger binding
All sequences stand within: GCCTAGCAC … GTCTTGATTCGCTTGACGCTGCTG
Construct (chain): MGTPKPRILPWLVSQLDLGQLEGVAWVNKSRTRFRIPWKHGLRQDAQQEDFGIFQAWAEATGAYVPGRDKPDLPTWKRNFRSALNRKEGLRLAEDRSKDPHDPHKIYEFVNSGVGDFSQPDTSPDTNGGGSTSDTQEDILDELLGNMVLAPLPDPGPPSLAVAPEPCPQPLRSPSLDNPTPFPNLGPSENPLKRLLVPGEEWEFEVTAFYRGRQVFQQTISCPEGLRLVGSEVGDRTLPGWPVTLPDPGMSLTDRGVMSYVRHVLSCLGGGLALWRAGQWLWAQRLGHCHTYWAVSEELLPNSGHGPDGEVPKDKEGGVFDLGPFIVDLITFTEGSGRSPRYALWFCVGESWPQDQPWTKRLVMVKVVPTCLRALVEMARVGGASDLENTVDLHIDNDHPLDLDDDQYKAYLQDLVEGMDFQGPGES
For `TTAGATCTCAGTATCGATTCGTGCTAG`, “fitted relative affinity” read 1.6 z-score.
`GTCGGTATCGGACTGGGGACGTGCTAG`: “fitted relative affinity” 2.68 z-score.
Under “fitted relative affinity”, `TTAGGTTTCGTTTCCGGTTAGTGCTAG` is recorded as 8.88 z-score.
Under “fitted relative affinity”, `GACGAATTCGGGTTTCGAGACGTGCTA` is recorded as 1.56 z-score.
`TTAGGTTTCCTTTTCTTTTAGTGCTAG`: “fitted relative affinity” 11.2 z-score.
For `GACGGAATCGGTCTCGGGACGTGCTAG`, “fitted relative affinity” read 1.12 z-score.
`TCAAACTTCGGCCTCTAACTGTGCTAG` — result for “fitted relative affinity”: -0.431 z-score.
`GACGGATTGCTTATCCTGACGTGCTAG` — result for “fitted relative affinity”: 0.235 z-score.

A few entries again (study 4):
`CCOC(=O)O[C@]1(C(=O)OCCl)CC[C@H]2[C@@H]3CCC4=CC(=O)C=C[C@]4(C)[C@H]3[C@@H](O)C[C@@]21C` gave an inhibition of 3.76%.
For `O=C1c2cccc(O)c2C(=O)c2c(O)cccc21`, the inhibition was 10.3%.
`NC(=O)Nc1cc(-c2cccc(F)c2)sc1C(=O)N[C@H]1CCCNC1` has an inhibition of 6.86%.
For `Oc1cc(O)cc(/C=C/c2ccc(O)c(O)c2)c1`, the inhibition was 1.06%.
`CCC(=O)NC1CCc2cccc(OC)c2C1` (stereo not shown) gave an inhibition of 0.2%.
